{"data": "Measurements collected from several papers", "note": "Protocols differ between the studies behind these lines. ± gives the spread as reported."}
{"Structure (SMILES)": "Clc1ccc(NN=C(c2ccccc2)c2ccccn2)nc1", "test system": "nude mouse, H358 xenograft", "conditions": "intraperitoneal, 110 mg/kg, sesame oil vehicle", "scale": "baseline: vehicle", "endpoint": "tumour growth rate", "value": "decreased"}
{"Structure (SMILES)": "C[C@H](NC(=O)CNC(=O)[C@H](CCC(=O)O)NC(=O)[C@H](CCC(=O)O)NC(=O)[C@H](CC(=O)O)NC(=O)[C@@H]1CCCN1C(=O)[C@H](Cc1ccccc1)NC(=O)[C@H](CS)NC(=O)[C@H](Cc1ccc(O)cc1)NC(=O)CCCNC(=O)CNC(=O)CNC(=O)[C@@H](C)NC(=O)CN)C(=O)N[C@@H](CS)C(=O)N[C@@H](Cc1ccc(O)cc1)C(N)=O [technetium-99m labelled]", "assay": "SPECT", "test system": "BALB/c nude mouse, SKBR3 tumour", "conditions": "intravenous, 37 MBq, 90 min", "endpoint": "tumour to non-tumour ratio", "value": 4.56}
{"Structure (SMILES)": "C=CC(=O)N1C[C@H](C)N(c2nc(OC[C@@]34CCCN3C[C@H](F)C4)nc3c(F)c(-c4ccc(F)c5sc(N)c(C#N)c45)c(C(F)(F)F)cc23)C[C@H]1C", "test system": "mouse, MIA PaCa-2 xenograft", "conditions": "oral, 10 mg/kg daily, 28 days", "endpoint": "tumour volume regression", "value": "90%"}
{"Structure (SMILES)": "Cc1cc(O)cc(O)c1C(=O)c1c2c3c(c(O)cc(C)c3oc1=O)C(=O)c1c(O)cc(O)cc1-2", "test system": "Bel-7402 xenograft, mouse", "conditions": "intraperitoneal, 14 mg/kg daily, day 21", "endpoint": "tumour volume", "value": "817 ± 84 mm³"}
{"Structure (SMILES)": "C[C@@H](O)[C@H](NC(=O)[C@@H]1CSSC[C@H](NC(=O)[C@@H](Cc2ccccc2)NC(=O)CCOCCOCCOCCOCCOCCOCCOCCOCCNC(=S)Nc2ccc(C[C@H]3CN(CC(=O)O)CCN(CC(=O)O)CCN3CC(=O)O)cc2)C(=O)N[C@@H](Cc2ccc(O)cc2)C(=O)N[C@H](Cc2c[nH]c3ccccc23)C(=O)N[C@@H](CCCCN)C(=O)N[C@@H]([C@@H](C)O)C(=O)N1)C(=O)O [copper-64 labelled]", "test system": "HCT116-SSTR2, NCr nude mouse female xenograft", "conditions": "dose not given, 4 h, 64Cu-labelled, with: Y3-TATE 50 µg, 30 min prior", "endpoint": "tumour uptake decrease", "value": "61%"}
{"Structure (SMILES)": "COc1ccc(CCNc2ncnc3sc(C)cc23)cc1OC", "assay": "item: Ki67", "test system": "mouse LNCaP xenograft", "conditions": "intraperitoneal, 2.6 mg/kg daily", "endpoint": "tumour cell proliferation", "value": "decreased"}
{"Structure (SMILES)": "C#CCCCC(F)/C=C/C(=O)NC1(c2ccc(-c3nc4ccn5c(=O)[nH]nc5c4cc3-c3ccccc3)cc2)CCC1 (stereo not shown)", "test system": "mouse, MDA-MB-468 xenograft", "conditions": "oral, 200 mg/kg twice weekly", "endpoint": "tumour growth slope", "value": "0.0473 ± 0.0015"}
{"Structure (SMILES)": "CCc1cnc(NC(=O)c2cc(S(=O)(=O)N3CCOCC3)ccc2N(C)C2CCCC2)s1", "test system": "mouse, H1975-OR xenograft", "conditions": "intraperitoneal, 10 mg/kg every other day, day 55", "endpoint": "tumour volume", "value": "190 ± 37 mm³"}
{"Structure (SMILES)": "CCN(C(=O)c1cc(F)ccc1Oc1nncnc1N1CCC2(C1)CN([C@H](CCCN(C)CCOC)C(C)C)C2)C(C)C", "test system": "mouse, subcutaneous MOLM-14 AML xenograft", "conditions": "oral, 100 mg/kg daily, 5 weeks", "endpoint": "tumour regression", "value": "99%"}
{"Structure (SMILES)": "O=c1[nH]c(N2CCC3(CC2)CN(CCO)c2cc(F)cc(F)c23)nc2c1CCCC2", "test system": "mouse COLO 320DM xenograft", "conditions": "intraperitoneal, 100 mg/kg once daily, 5 days on 2 off, 2 weeks", "endpoint": "tumour growth inhibition", "value": "32.9%"}
{"note": "Excerpt of the above:"}
{"Structure (SMILES)": "C=CC(=O)N1C[C@H](C)N(c2nc(OC[C@@]34CCCN3C[C@H](F)C4)nc3c(F)c(-c4ccc(F)c5sc(N)c(C#N)c45)c(C(F)(F)F)cc23)C[C@H]1C", "test system": "mouse, MIA PaCa-2 xenograft", "conditions": "oral, 10 mg/kg daily, 28 days", "endpoint": "tumour volume regression", "value": "90%"}
